Experimental data from different studies.
Lines come from different studies, so protocols differ. Several values in a cell are separate wells, animals, samples, runs or records. ± marks the error that the study gave.
PC4 and SFRS1-interacting protein with HIV integrase: PC4 and SFRS1-interacting protein, with HIV integrase (Homo sapiens, UniProt O75475)
Sequence of UniProt O75475 (whole entry, looked up): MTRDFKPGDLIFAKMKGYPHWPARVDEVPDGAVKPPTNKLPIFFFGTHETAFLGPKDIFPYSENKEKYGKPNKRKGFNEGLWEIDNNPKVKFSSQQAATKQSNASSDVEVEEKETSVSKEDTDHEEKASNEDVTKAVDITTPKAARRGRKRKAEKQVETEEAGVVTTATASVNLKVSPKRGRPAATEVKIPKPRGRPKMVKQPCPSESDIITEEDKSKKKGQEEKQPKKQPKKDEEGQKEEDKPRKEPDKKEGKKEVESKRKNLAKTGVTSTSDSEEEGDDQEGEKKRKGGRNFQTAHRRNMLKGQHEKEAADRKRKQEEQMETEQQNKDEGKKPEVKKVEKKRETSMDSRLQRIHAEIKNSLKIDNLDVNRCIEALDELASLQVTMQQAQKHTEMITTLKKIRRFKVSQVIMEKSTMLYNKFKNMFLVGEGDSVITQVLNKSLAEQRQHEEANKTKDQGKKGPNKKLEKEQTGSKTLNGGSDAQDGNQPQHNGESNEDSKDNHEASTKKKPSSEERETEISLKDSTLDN
CPL: CPL (Toxoplasma gondii, UniProt Q6DMN0)
HDAC8: Histone deacetylase 8 (HDAC8, Homo sapiens, UniProt Q9BY41)
Sequence of UniProt Q9BY41 (whole entry, looked up): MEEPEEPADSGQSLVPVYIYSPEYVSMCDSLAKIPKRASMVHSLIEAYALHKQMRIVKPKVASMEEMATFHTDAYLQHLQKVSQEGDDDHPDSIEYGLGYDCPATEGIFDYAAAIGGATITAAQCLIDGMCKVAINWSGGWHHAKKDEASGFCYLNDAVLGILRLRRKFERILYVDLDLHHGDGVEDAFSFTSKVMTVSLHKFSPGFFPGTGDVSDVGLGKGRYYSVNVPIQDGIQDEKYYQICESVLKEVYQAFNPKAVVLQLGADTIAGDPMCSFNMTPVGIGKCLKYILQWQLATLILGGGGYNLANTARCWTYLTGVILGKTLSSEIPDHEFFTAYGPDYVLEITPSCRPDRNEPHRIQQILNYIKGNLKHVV
CES2: Cocaine esterase (CES2, Homo sapiens, UniProt O00748)
Sequence of UniProt P05979 (whole entry, looked up): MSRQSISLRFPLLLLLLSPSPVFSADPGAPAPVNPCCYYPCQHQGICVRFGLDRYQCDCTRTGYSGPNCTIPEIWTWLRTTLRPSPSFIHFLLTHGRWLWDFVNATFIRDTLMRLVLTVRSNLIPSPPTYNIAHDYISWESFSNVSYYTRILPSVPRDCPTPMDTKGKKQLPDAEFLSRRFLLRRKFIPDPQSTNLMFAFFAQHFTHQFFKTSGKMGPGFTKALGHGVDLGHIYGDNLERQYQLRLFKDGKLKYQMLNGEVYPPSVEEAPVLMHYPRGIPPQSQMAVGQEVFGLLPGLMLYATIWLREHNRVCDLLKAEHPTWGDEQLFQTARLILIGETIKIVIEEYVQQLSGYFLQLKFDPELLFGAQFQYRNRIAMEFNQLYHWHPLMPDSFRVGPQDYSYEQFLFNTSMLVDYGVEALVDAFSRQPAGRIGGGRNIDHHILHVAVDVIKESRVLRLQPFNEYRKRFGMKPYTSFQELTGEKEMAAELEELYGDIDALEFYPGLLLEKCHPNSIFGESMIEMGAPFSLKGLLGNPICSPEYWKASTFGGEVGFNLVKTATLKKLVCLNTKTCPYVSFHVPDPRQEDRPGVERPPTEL
Sequence of UniProt O00748 (whole entry, looked up): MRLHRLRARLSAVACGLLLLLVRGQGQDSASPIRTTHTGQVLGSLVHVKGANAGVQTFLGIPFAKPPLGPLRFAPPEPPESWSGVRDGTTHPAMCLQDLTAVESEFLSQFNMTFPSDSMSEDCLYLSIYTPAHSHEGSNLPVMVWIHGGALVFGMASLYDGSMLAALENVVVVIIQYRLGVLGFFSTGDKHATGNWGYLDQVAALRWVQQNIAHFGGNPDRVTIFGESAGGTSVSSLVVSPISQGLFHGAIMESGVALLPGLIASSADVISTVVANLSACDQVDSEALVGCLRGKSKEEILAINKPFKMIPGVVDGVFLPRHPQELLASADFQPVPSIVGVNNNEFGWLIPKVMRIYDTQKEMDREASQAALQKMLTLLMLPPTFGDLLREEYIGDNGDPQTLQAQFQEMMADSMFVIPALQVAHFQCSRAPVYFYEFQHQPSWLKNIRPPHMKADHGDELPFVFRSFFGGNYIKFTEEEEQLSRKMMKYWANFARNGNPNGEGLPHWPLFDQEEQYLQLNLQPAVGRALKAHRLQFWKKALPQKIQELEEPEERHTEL
Sequence of UniProt Q96P56 (whole entry, looked up): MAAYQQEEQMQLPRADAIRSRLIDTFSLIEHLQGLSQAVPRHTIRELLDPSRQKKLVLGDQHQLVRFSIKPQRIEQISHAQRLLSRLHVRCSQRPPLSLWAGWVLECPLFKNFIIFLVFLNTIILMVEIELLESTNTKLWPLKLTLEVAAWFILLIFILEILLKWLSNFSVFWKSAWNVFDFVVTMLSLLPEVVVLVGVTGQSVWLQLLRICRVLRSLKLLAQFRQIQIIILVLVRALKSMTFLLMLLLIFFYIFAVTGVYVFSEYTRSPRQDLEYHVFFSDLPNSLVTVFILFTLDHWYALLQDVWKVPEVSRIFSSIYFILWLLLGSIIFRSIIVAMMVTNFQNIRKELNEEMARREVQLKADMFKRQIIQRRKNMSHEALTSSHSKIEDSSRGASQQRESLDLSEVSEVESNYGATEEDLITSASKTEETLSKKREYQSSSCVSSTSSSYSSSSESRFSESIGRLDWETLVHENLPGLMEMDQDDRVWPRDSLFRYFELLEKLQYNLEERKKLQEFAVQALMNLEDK
Sequence of UniProt P62615 (whole entry, looked up): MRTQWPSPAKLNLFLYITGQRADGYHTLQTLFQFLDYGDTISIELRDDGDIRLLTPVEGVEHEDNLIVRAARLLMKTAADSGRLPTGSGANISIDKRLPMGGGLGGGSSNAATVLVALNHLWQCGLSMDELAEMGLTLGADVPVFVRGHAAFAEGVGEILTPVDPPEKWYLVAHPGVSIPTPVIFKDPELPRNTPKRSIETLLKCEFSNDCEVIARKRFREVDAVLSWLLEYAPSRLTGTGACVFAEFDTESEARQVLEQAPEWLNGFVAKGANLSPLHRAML
Sequence of UniProt A0QSG6 (whole entry, looked up): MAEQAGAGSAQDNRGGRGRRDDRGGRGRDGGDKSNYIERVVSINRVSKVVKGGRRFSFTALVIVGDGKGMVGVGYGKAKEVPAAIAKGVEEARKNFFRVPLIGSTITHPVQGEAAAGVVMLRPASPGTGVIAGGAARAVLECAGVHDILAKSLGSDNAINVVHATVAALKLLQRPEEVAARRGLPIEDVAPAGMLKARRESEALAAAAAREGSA
Sequence of UniProt P00691 (whole entry, looked up): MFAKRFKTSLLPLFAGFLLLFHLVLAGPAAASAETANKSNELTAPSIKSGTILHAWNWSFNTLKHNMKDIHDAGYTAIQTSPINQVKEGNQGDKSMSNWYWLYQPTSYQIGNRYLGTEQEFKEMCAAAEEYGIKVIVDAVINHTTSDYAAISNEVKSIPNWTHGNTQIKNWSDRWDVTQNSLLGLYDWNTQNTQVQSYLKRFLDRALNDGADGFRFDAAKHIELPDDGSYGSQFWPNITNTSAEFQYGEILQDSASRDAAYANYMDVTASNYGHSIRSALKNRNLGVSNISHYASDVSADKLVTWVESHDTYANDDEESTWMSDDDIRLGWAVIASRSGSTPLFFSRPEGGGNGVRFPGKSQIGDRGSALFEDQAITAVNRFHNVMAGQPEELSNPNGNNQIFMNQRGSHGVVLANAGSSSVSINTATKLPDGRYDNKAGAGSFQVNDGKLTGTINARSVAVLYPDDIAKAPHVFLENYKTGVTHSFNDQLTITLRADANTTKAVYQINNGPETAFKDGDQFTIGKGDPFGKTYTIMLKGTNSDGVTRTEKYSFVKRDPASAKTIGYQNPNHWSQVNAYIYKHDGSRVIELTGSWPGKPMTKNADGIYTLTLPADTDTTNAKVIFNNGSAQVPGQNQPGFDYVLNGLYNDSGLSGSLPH

C[C@@H]1CCN(c2nc3ccc(Cl)cc3o2)CCN1S(=O)(=O)c1ccccc1 — IC50 (HCRTR1 (Homo sapiens, UniProt O43613); calcium signal, antagonist, fluorescence): 8.58 µM
O=C(O)c1cc(Br)c[nH]1 — IC50 (4-diphosphocytidyl-2-C-methyl-D-erythritol kinase (Escherichia coli, UniProt P62615); enzyme activity, inhibitor): 113 µM
N[C@@H](Cc1c[nH]cn1)C(=O)NCC(=O)N[C@@H](CC(=O)O)C(=O)N[C@@H](Cc1ccccc1)C(=O)O — IC50 (Integrin alpha-IIb/beta-3, ADP-activated (Homo sapiens, UniProt P05106+P08514); fibrinogen binding, inhibitor; human platelets): > 1000 µM
OC[C@@H]1[C@@H](O)[C@H](O)[C@@H](O)[C@H]2N[C@@H]12 — IC50 (GBA1 (Homo sapiens, UniProt P04062, R534H); enzyme activity, inhibitor; 30 min preincubation, pH 5.2, 37 °C, added: 4-MU-β-Glc): 21 ± 1 µM
CC(C)C[C@H](NC(=O)[C@H](CCCCN)NC(=O)[C@H](CC(C)C)NC(=O)[C@]1(C)CCCC=CCCC[C@](C)(N)C(=O)N[C@@H](C)C(=O)N[C@@H](Cc2ccc(O)cc2)C(=O)N[C@@H](Cc2ccccc2)C(=O)N1)C(=O)N[C@@H](C)C(=O)NCC(=O)N[C@@H](CCCNC(=N)N)C(=O)N[C@@H](Cc1c[nH]c2ccccc12)C(N)=O — IC50 (PC4 and SFRS1-interacting protein with HIV integrase; LEDGF/p75-integrase interaction, inhibitor): > 100 µM
N#Cc1nc(N2CCOCC2)nc(N(Cc2ccc(F)cc2)CC2CCOCC2)n1 — IC50 (CPL; enzyme activity, inhibitor, Z-L-R-AMC hydrolysis fluorescence): 0.4 µM
CC[C@H](C)[C@@H]1NC(=O)[C@@H]2CCCN2C(=O)[C@@H]2CCCN2C(=O)[C@H]([C@@H](C)CC)NC(=O)[C@H](CO)NC(=O)[C@H](CCCCN)NC(=O)[C@H]([C@@H](C)O)NC(=O)[C@@H]2CSSC[C@H](NC1=O)C(=O)N[C@@H](Cc1ccccc1)C(=O)N1CCC[C@H]1C(=O)N[C@@H](CC(=O)O)C(=O)NCC(=O)N[C@@H](CCCNC(=N)N)C(=O)N2 — IC50 (Lymphocyte function-associated antigen 3 (CD58, Homo sapiens, UniProt P19256); human cells): > 50 µM
N=C(N)NCCC[C@@H](NC(=O)[C@@H](CCCNC(=N)N)NC(=O)[C@@H](CCCNC(=N)N)NC(=O)[C@@H](CCCNC(=N)N)NC(=O)[C@@H](CCCNC(=N)N)NC(=O)[C@@H](CCCNC(=N)N)NC(=O)CCCCCNC1CCN(c2ncnc3[nH]cnc23)CC1)C(N)=O — IC50 (cGMP-dependent protein kinase 1, isoform alpha (PRKG1, Homo sapiens, UniProt Q13976)): 0.0339 µM
CCC(C)SSc1ncc[nH]1 (centres unmarked) — IC50 (genome polyprotein, 2A protease (Enterovirus D68, UniProt A0A097BW19); enzyme activity, inhibitor, FRET; no DTT): 9.3 ± 4.2 µM
CCCN(Cc1ccc(F)cc1)c1nc(C#N)nc(N2CCOCC2)n1 — IC50 (CPL; enzyme activity, inhibitor, Z-L-R-AMC hydrolysis fluorescence): 0.246 µM
CC(C)C[C@@H]1NC(=O)[C@H](CCCCN)NC(=O)[C@H](CC(C)C)NC(=O)[C@@](C)(NC(=O)[C@H](Cc2ccccc2)NC(=O)[C@H](Cc2ccc(O)cc2)NC(=O)[C@H](C)NC(=O)[C@@H](N)[C@@H](C)O)CCCC=CCCC[C@@](C)(C(=O)NCC(=O)N[C@@H](CCCNC(=N)N)C(=O)N[C@@H](Cc2c[nH]c3ccccc23)C(N)=O)NC1=O — IC50 (PC4 and SFRS1-interacting protein with HIV integrase; LEDGF/p75-integrase interaction, inhibitor): < 20 µM and 14 µM
CC(C)P(=S)(NP(=S)(C(C)C)C(C)C)C(C)C — IC50 (Alpha-amylase (Bacillus subtilis, UniProt P00691); enzyme activity, inhibitor, absorbance; pH 6.9): 268 µM
O=C(CCCCCCC(=O)Nc1cccc(N=Nc2ccccc2)c1)NO — IC50 (HDAC8; enzyme activity, inhibitor; cis isomer, irradiated): 0.087 ± 0.016 µM
Cc1cccc(C(c2c(C)[nH]c3ccccc23)C(C#N)C#N)c1 (centres unmarked) — IC50 (CES2; enzyme activity, inhibitor; human liver microsomes; pH 7.4, 37 °C, added: fluorescein diacetate): 4.12 ± 0.84 µM
Cc1ccc(C(=O)/C=C/c2ccc(N(C)CCO)cc2)o1 — IC50 (PTGS1 (Ovis aries, UniProt P05979); enzyme activity, inhibitor, ELISA): < 25 µM and 25.9 µM
CC(C)C[C@H](NC(=O)OCc1cccc(Cl)c1)C(=O)N[C@@H](C[C@H]1CCNC1=O)C(=O)C(=O)NC1CC1 — IC50 (Genome polyprotein, 3C protease (Human enterovirus D68, UniProt Q68T42); 3C protease activity, inhibitor, FRET): 0.13 ± 0.04 µM
OC(COCc1ccccc1Cl)CN1CC=C(c2c[nH]c3ccccc23)CC1 (racemic) — IC50 (SLC6A4 (Homo sapiens, UniProt P31645); transporter uptake, inhibitor, radiometric): 0.441 µM
CCN(C)C(=O)Oc1ccccc1/C=C1\Cc2cc(OC)c(OC)cc2C1=O — IC50 (CES2; irinotecan hydrolysis, inhibitor; human intestinal S9; 30 min preincubation, added: irinotecan): 0.0328 µM
COC(=O)C1CN1S(=O)(=O)c1ccc(C(C)(C)C)cc1 (centres unmarked) — IC50 (P4HB (Homo sapiens, UniProt P07237); insulin reduction, inhibitor, insulin turbidity; full-length PDIA1): 0.6 ± 0.03 µM
O=C(CS)NCCCCCNC(=O)c1ccccc1 — IC50 (HDAC8; enzyme activity, inhibitor): 7.53 µM
CC[C@H](C)[C@H](NC(=O)[C@H](CO)NC(=O)[C@H](Cc1ccc(O)cc1)NC(=O)[C@H](CC(=O)O)NC(=O)[C@H](CO)NC(=O)[C@@H](NC(=O)[C@H](Cc1ccccc1)NC(=O)[C@@H](NC(=O)CNC(=O)[C@@H]1CCCN1C(=O)[C@H](C)NC(=O)[C@@H](N)Cc1ccc(O)cc1)[C@@H](C)O)[C@@H](C)CC)C(=O)N[C@@H](C)C(=O)N[C@@H](CCSC)C(=O)N[C@@H](CC(=O)O)C(=O)N[C@@H](CCCCN)C(=O)N[C@H](C(=O)N[C@@H](CCCNC(=N)N)C(=O)N[C@@H](CCC(N)=O)C(=O)N[C@@H](CCC(N)=O)C(=O)N[C@@H](CC(=O)O)C(=O)N[C@@H](Cc1ccccc1)C(=O)N[C@H](C(=O)N[C@@H](CC(N)=O)C(=O)N[C@@H](Cc1c[nH]c2ccccc12)C(=O)N[C@@H](CC(C)C)C(=O)N[C@@H](CC(C)C)C(=O)N[C@@H](C)C(=O)N[C@@H](CCC(N)=O)C(=O)N[C@@H](CCCNC(=N)N)C(=O)NCC(=O)N[C@@H](CCCCN)C(=O)N[C@@H](CCCCN)C(=O)N[C@@H](CO)C(=O)N[C@@H](CC(=O)O)C(=O)N[C@@H](Cc1c[nH]c2ccccc12)C(=O)N[C@@H](CCCCN)C(=O)N[C@@H](Cc1c[nH]cn1)C(=O)N[C@@H](CC(N)=O)C(=O)N[C@H](C(=O)N[C@H](C(=O)N[C@@H](CCC(N)=O)C(=O)O)[C@@H](C)O)[C@@H](C)CC)C(C)C)[C@@H](C)CC — IC50 (GIPR (Homo sapiens, UniProt P48546); ligand displacement in cells, radioligand): 0.00794 µM
O=C(O)c1ccccc1Nc1ccc(Oc2ccc([N+](=O)[O-])cc2)cc1 — IC50 (Androgen receptor (AR, Homo sapiens, UniProt P10275); reporter gene, antagonist, MMTV-Luc reporter; MDA-kb2; 20 h, added: 0.2 nM DHT (EC50)): 1.9 ± 0.9 µM
CC[C@H](C)[C@H](NC(=O)[C@H](C)N)C(=O)N[C@@H](CCCNC(=N)N)C(=O)N[C@@H](CCC(N)=O)C(=O)N[C@H](C(=O)N[C@@H](Cc1c[nH]cn1)C(=O)N[C@@H](CC(N)=O)C(=O)N[C@H](C(=O)N[C@@H](Cc1ccccc1)C(=O)N[C@@H](Cc1ccccc1)C(=O)N[C@@H](Cc1ccccc1)C(=O)N[C@@H](Cc1ccccc1)C(=O)N[C@@H](Cc1ccccc1)C(=O)N[C@@H](CCCCN)C(=O)N[C@@H](CCCNC(=N)N)C(=O)N[C@@H](CCCNC(=N)N)C(=O)O)[C@@H](C)CC)[C@@H](C)O — IC50 (histidine kinase ComD (Streptococcus pneumoniae serotype 4, UniProt A0A0H2US84); reporter gene, antagonist; Streptococcus pneumoniae, TIGR4 comX::lacZ; 30 min, 37 °C, added: CSP2 250 nM): > 10 µM
Cc1ccc(NC(=O)N2CCN(c3cccc(C(F)(F)F)c3)CC2)cc1 — IC50 (CatSper channel complex (Homo sapiens, UniProt Q7RTX7+Q86XQ3+Q8NEC5+Q96P56); calcium influx, inhibitor, FLIPR; human sperm; added: 3 µM progesterone): > 100 µM
CC[C@H](C)[C@@H]1NC(=O)[C@H](C(C)C)NC(=O)[C@H](C(C)C)NC(=O)[C@H](CC(C)C)NC(=O)C[C@@H](C(=O)N[C@@H](Cc2c[nH]c3ccccc23)C(=O)N[C@@H](CC(N)=O)C(=O)N[C@@H](C)C(=O)N2CCC[C@H]2C(=O)NCC(=O)N[C@@H](Cc2c[nH]c3ccccc23)C(=O)N[C@@H](Cc2ccccc2)C(=O)O)NC(=O)[C@H](C)NC(=O)[C@H](CCC(N)=O)NC(=O)[C@H](C(C)C)NC1=O — IC50 (TLR4 (Homo sapiens, UniProt O00206); LPS binding, antagonist, ELISA): 0.753 ± 0.015 µM
O=C(CCCCCCC(=O)Nc1ccccc1N=Nc1ccccc1)NO — IC50 (HDAC8; enzyme activity, inhibitor; trans isomer): 0.07 ± 0.022 µM
CC(C)C[C@@H]1NC(=O)[C@H](Cc2ccc(O)cc2)NC(=O)[C@H](CC(N)=O)NC(=O)[C@H](CO)NC(=O)[C@@H](NC(=O)[C@@H](NC(=O)[C@H](CC(N)=O)NC(=O)[C@H](Cc2ccc(O)cc2)NC(=O)[C@@H](N)CCCCN)C(C)C)CSC1=O — IC50 (Accessory gene regulator protein C (Staphylococcus epidermidis, UniProt O86861)): 0.0758 µM
CC(C)C[C@@H]1NC(=O)[C@H](CCCNC(=N)N)NC(=O)[C@H](C)NC(=O)[C@H](CC(=O)O)NC(=O)[C@H](CCCCN)NC(=O)[C@@H](CO)NC1=O — IC50 (Disintegrin and metalloproteinase domain-containing protein 8 (Homo sapiens, UniProt P78325); CD23 shedding, inhibitor, ELISA; COS-7, co-transfected with CD23): 0.255 ± 0.027 µM
COc1cc(O)cc(-c2cc3ccc(O)c(C/C=C(\C)CCC=C(C)C)c3o2)c1CC=C(C)C — IC50 (GSK3B (Homo sapiens, UniProt P49841); enzyme activity, inhibitor): 3.59 µM
N#Cc1nc(N2CCOCC2)nc(N(Cc2ccc(F)cc2)CC2CCCOC2)n1 (centres unmarked) — IC50 (CPL; enzyme activity, inhibitor, Z-L-R-AMC hydrolysis fluorescence): 0.049 µM
CN[C@@H]1[C@H](O)[C@H](NC)[C@H]2O[C@]3(O)[C@H](O[C@@H]2[C@H]1O)O[C@H](C)C[C@@]3(O)CNCc1ccccc1 — IC50 (Small ribosomal subunit protein uS5, 70S ribosome (rpsE, Mycolicibacterium smegmatis, UniProt A0QSG6); translation, inhibitor, in vitro translation, luciferase; Mycobacterium smegmatis ribosomes): 0.87 µg/mL
CC(C)C[C@@H]1NC(=O)[C@H](C(C)C)NC(=O)[C@H](C)NC(=O)[C@H](Cc2ccc(O)cc2)NC(=O)[C@H](CCC(N)=O)NC(=O)[C@H](CC(C)C)NC(=O)[C@@H](Cc2ccc(O)cc2)NC(=O)CSC[C@@H](C(N)=O)NC(=O)[C@H](CCC(=O)O)NC(=O)[C@H](CCCNC(=N)N)NC(=O)[C@H](CCCNC(=N)N)NC(=O)[C@H](CCCCN)NC(=O)[C@H](Cc2c[nH]cn2)NC(=O)[C@H](CCCNC(=N)N)NC1=O — IC50 (Cathepsin E (CTSE, Homo sapiens, UniProt P14091); enzyme activity, inhibitor): > 10 µM

Some of these lines once more:
CC(C)C[C@@H]1NC(=O)[C@H](CCCCN)NC(=O)[C@H](CC(C)C)NC(=O)[C@@](C)(NC(=O)[C@H](Cc2ccccc2)NC(=O)[C@H](Cc2ccc(O)cc2)NC(=O)[C@H](C)NC(=O)[C@@H](N)[C@@H](C)O)CCCC=CCCC[C@@](C)(C(=O)NCC(=O)N[C@@H](CCCNC(=N)N)C(=O)N[C@@H](Cc2c[nH]c3ccccc23)C(N)=O)NC1=O — IC50 (PC4 and SFRS1-interacting protein with HIV integrase; LEDGF/p75-integrase interaction, inhibitor): < 20 µM and 14 µM
O=C(CCCCCCC(=O)Nc1ccccc1N=Nc1ccccc1)NO — IC50 (HDAC8; enzyme activity, inhibitor; trans isomer): 0.07 ± 0.022 µM
CC(C)C[C@H](NC(=O)[C@H](CCCCN)NC(=O)[C@H](CC(C)C)NC(=O)[C@]1(C)CCCC=CCCC[C@](C)(N)C(=O)N[C@@H](C)C(=O)N[C@@H](Cc2ccc(O)cc2)C(=O)N[C@@H](Cc2ccccc2)C(=O)N1)C(=O)N[C@@H](C)C(=O)NCC(=O)N[C@@H](CCCNC(=N)N)C(=O)N[C@@H](Cc1c[nH]c2ccccc12)C(N)=O — IC50 (PC4 and SFRS1-interacting protein with HIV integrase; LEDGF/p75-integrase interaction, inhibitor): > 100 µM
OC(COCc1ccccc1Cl)CN1CC=C(c2c[nH]c3ccccc23)CC1 (racemic) — IC50 (SLC6A4 (Homo sapiens, UniProt P31645); transporter uptake, inhibitor, radiometric): 0.441 µM
